{"data": "Results collected from several papers", "note": "A part holds a random share of what one study measured. Positions count from the first letter of the parent shown."}
{"data": "Set 1", "target": "RNA binding protein fox-1 homolog 2, RRM domain, GST-SBP tag (RBFOX2, Homo sapiens, UniProt O43251-10, residues 100-194)", "method": "RNA Bind-n-Seq", "form": "RNA", "sample": "in vitro", "tested at": "365 nM", "setting": "natural RNA segment, single round, ends assumed", "relative to": "no-protein control", "reading": "higher = stronger binding", "shared flanks, not repeated": "GGGAGUUCUACAGUCCGACGAUC … UGGAAUUCUCGGGUGCCAA", "Residues (chain)": "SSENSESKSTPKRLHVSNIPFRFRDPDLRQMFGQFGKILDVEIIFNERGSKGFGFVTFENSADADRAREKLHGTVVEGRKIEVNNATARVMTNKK"}
{"Oligonucleotide": "UAGACUGAGAUCUGGGACUGUGUUGGGACCAUUCAGGUGAUAUGUCACUUCCACAAAUGGCAUCUCCAAGUAAGCUGUCACCUGGUACACAUGGAGGUGGAGCCUGCAGC", "RBNS enrichment (R)": 0.746}
{"Oligonucleotide": "AGUGAGCCCUUGGCUCAGCCCUUGUCACCUGUUUGUAUGGGGACCAUGUUUCCCAAAGCUCAGGUUCAUCUCCACUAUUGACAGAGUCGGGUAGUGGGAGAGUAUAAGUG", "RBNS enrichment (R)": 0.254}
{"Oligonucleotide": "CCACAACAGCUGGUGGGAGGGUGGGGUGGGCCUGGGUCCAGACCAGGCUCGCUGCUCUCUGGGCCUCAGUUUCCCCACCUGCCAGCGGGCUCGGCCCUGUCCUCCUCACA", "RBNS enrichment (R)": 0.208}
{"Oligonucleotide": "CACCUGCCAGACUGGGAUUUUCCUCUCAUCUAAGACACAAAGCGCCUAAGGUGCUCAGCGUCUCAAGAGGACUGGGGUCGAGGCUAAUCUCCAAGCUCCAUCUGCAAAGG", "RBNS enrichment (R)": 0.213}
{"Oligonucleotide": "UUUUAAGAUCAUUAUUUGAUAGCUGUAGCAUGAAGCAGAGGUUGAUGAUGCCCAUAAUUGCAAGACUAUUCCUGUAAAAAUAACAAUUAUUGGGUAAUAACUUCAAGAGG", "RBNS enrichment (R)": 12.2}
{"Oligonucleotide": "CCGGGGCCCAGCACGUUGCCCUGGGCCUGUGGCCGGAGUCGGAGUCCUCUCUCCUCCUCCUGGCUUUUGGAAAGGCUUGGCUGUGUUGGGGAGUCUCUCUUAGCCCUUUC", "RBNS enrichment (R)": 8.25}
{"Oligonucleotide": "GGGCAACACUAAGGUGCUCUUAGAAACACUAAUGUUCCUCUGGGGCAGCCCCCACCUCCGUCCUGACCCGACGGGGGCCCGGCCCACUGCCUACCCUCGAGUCCCGCAGC", "RBNS enrichment (R)": 0.16}
{"Oligonucleotide": "UUAUGAAGAAUGGGUACUUCUGGAUUCCAGGAAAAAUUCUUAUAACUAAAAUCAAUAUGUUUUAAAAGUCACCAUAUAGCUUCUUACUAGUUAUCUUUUAAAGACUGUGG", "RBNS enrichment (R)": 0.735}
{"data": "Set 2", "Molecule": "PhoQ, residues 284 288 289 292 302 303 GANMMA", "method": "Sort-seq", "refers to": "YFP reporter", "sample": "E. coli", "setting": "PhoQ-PhoP variant library", "together with": "10 µM Mg2+", "relative to": "high Mg2+ state", "reading": "higher = stronger signaling"}
{"target": "PhoP, residues 12 14 15 18 19 TQCLL (Escherichia coli, UniProt P23836)", "fold induction": 1.36}
{"target": "PhoP, residues 12 14 15 18 19 ICWRQ (Escherichia coli, UniProt P23836)", "fold induction": 0.977}
{"target": "PhoP, residues 12 14 15 18 19 VHTVL (Escherichia coli, UniProt P23836)", "fold induction": 8.99}
{"data": "Set 3", "target": "CCNA2, cyclin fold, Cln2 fusion (human)", "method": "yeast growth competition, sequencing", "sample": "yeast", "setting": "strong parent motif", "relative to": "not given", "reading": "higher = stronger binding", "parent": "INSM1 docking peptide (human); PKAIRKLHFEDEV; partner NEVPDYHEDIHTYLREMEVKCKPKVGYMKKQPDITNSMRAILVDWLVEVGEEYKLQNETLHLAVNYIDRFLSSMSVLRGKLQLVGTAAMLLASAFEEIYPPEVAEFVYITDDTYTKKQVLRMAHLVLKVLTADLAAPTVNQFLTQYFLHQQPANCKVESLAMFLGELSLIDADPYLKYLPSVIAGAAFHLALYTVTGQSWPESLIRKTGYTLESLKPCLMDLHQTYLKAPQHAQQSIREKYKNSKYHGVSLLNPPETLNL"}
{"Substitution": "PKAIRKLHSEDEV [F9S]", "normalised enrichment score": 0.376}
{"Substitution": "PKAIEKLHFEDEV [R5E]", "normalised enrichment score": -0.022}
{"Substitution": "PKAERKLHFEDEV [I4E]", "normalised enrichment score": 1.74}
{"Substitution": "PKAIRKLHFEIEV [D11I]", "normalised enrichment score": 4.32}
{"Substitution": "PKAIRKLHDEDEV [F9D]", "normalised enrichment score": -0.235}
{"Substitution": "PKAIRKLHFEDVV [E12V]", "normalised enrichment score": 4.91}
{"Substitution": "PKAIRKLHFIDEV [E10I]", "normalised enrichment score": 4.4}
{"data": "Mixed results"}
{"Molecule": "KRT8 (Homo sapiens, UniProt P05787)", "partner": "DES (Homo sapiens, UniProt P17661)", "assay": "cross-linking MS", "conditions": "hits only", "endpoint": "interaction screen", "result": "cross-linked"}
{"note": "A few entries again (set 3):"}
{"Substitution": "PKAERKLHFEDEV [I4E]", "normalised enrichment score": 1.74}
{"Substitution": "PKAIRKLHSEDEV [F9S]", "normalised enrichment score": 0.376}
